Experimental data gathered from unrelated publications.
Compare with care: the assays were run in different laboratories.

Compound | assay | system | setting | measurement | result
Cn1cncc1-c1c(F)cncc1NC(=O)c1c(N)nn2cc(F)cnc12 | – | human patients | oral, dose not given, all doses | patients grade ≥3 Lymphocyte count decrease | 24%
COc1ncnn2ccc(-c3cnc4nc(C)n(Cc5nnc([C@@H](C)F)o5)c4c3)c12 | – | human | oral, dose not given, grade 4 | patients with hypotension | 0%
O=C1Nc2cc3[nH]nc(-c4ccncc4)c3cc2CN1Cc1ccccc1 | CTCAE v4.03 | human, relapsed or refractory advanced solid tumours | intravenous, 4.8 mg/kg, pooled schedules | patients with rash | 0%
C[C@@H]1OC(=O)NN=C1c1ccc(-c2ccc(F)cc2)c(C(F)(F)F)c1 | phase I trial, measured: Ascites all grades | human patients | 5 mg once daily | patients with adverse event | 0%
C=CC(=O)Nc1cc(Nc2nccc(Nc3cc(Cl)c(F)cc3C(C)(C)O)n2)c(OC)cc1N1CC[C@@H](N(C)C)C1 | – | human patients | oral, 400 mg, treatment-emergent adverse events | patients with hypokalaemia | 35%
CN(C)C(=O)c1cc2cnc(Nc3ccc(N4CCNCC4)cn3)nc2n1C1CCCC1 | measured: Leukopenia, AESI | human, HR+/HER2− advanced breast cancer | oral, dose not given, grade 4, CTCAE v4.03 | patients with adverse event | 1.2%
Cc1cn([C@H]2O[C@@H](CO[P@@](=O)(N[C@@H](C)C(=O)OC(C)C)Oc3ccccc3)[C@H](O)[C@H]2F)c(=O)[nH]c1=O | measured: external ear pain | human | 10 mg | patients with TEAE | 0%
COc1ccc(-c2c(-c3ccc(C#N)c(F)c3)nc(N3CCC(N)CC3)n(C)c2=O)cc1F | measured: acute kidney injury | human patients | oral, 60 mg, dose expansion | patients with serious TEAE | 0%
C[C@]1(O)C[C@@](N)(c2ccc(-c3nc4n(c3-c3ccccc3)COc3ccncc3-4)cc2)C1 | – | human, advanced or metastatic solid tumours | dose not given, once-daily dose escalation total | patients with decreased appetite TEAE | 22.2%
N[C@@H]1c2ccccc2OC12CCN(c1cnc3c(N4CCCc5ncccc54)n[nH]c3n1)CC2 | measured: thrombocytopenia | human advanced or metastatic solid tumours | oral, dose not given, phase Ia | patients with serious adverse event | 3.6%

Repeated from above:
Compound | assay | system | setting | measurement | result
O=C1Nc2cc3[nH]nc(-c4ccncc4)c3cc2CN1Cc1ccccc1 | CTCAE v4.03 | human, relapsed or refractory advanced solid tumours | intravenous, 4.8 mg/kg, pooled schedules | patients with rash | 0%
